Experimental data gathered from unrelated publications.
Protocols differ between the studies behind these lines. ± gives the spread as reported. In brackets after ≈: the same amount, converted by molar mass.
Organism: Mycobacterium tuberculosis
Strain: H37Rv

Compound | test | system | conditions | how to read | quantity | result
CCCCCCCCCC1N=C(N)N=C(N)N1c1ccc(Cl)cc1.Cl (racemic) | microplate alamar blue | – | 7H12 medium | – | MIC90 | 1.4 µM
O=C(OCc1ccccc1)C(O)=CC(=O)c1ccccc1Br | MABA | – | dextrose carbon source | – | MIC99 | 8 µM (≈ 2.89 µg/mL)
[2H]c1c(C([2H])([2H])[2H])c([2H])n2c(C(=O)NCc3cccc(N(C)C)c3)c(C)nc2c1[2H] | MABA | GAS medium | – | – | MIC | 0.0502 ± 0.0064 µM (≈ 0.0165 µg/mL)
Cc1ccc(F)c(C(=O)C=C(O)C(=O)OCc2ccccc2)c1Cl | MABA | – | acetate carbon source | – | MIC99 | < 1 µM
CCCC/C=C/C(=O)N[C@@H](Cc1cc(F)cc(F)c1)C(=O)N[C@@H](COC(=O)[C@@H]1CCCN1C(C)=O)C(=O)OC | – | – | concentration not given, together with: 50 µg/mL verapamil | baseline: without verapamil | potentiation by verapamil | 16 fold
[2H]c1c(C([2H])([2H])[2H])c([2H])n2c(C(=O)NCc3ccc(C(C)(C)C)cc3)c(C)nc2c1[2H] | MABA | 7H12 medium | – | – | MIC | 0.0027 µM
CCCCCCCCCCCC1N=C(N)N=C(N)N1c1ccc(Cl)cc1.Cl (racemic) | microplate alamar blue | – | GAST medium, glycerol carbon source | – | MIC90 | 1.3 µM
COC(=O)C(O)=CC(=O)c1ccccc1Br | MABA | – | acetate carbon source | – | MIC99 | 8 µM (≈ 2.28 µg/mL)
Cc1ccc2nc(C)c(C(=O)NCc3ccc(C(F)(F)F)cc3)n2c1 | MABA | 7H12 medium | – | – | MIC | 0.0071 ± 0.0025 µM (≈ 0.00247 µg/mL)
NC[C@H]1OB(O)c2c(OCCO)cccc21 | Alamar blue | – | – | – | MIC | 0.79 µM (≈ 0.176 µg/mL)
CCCC/C=C/C(=O)N[C@@H](Cc1cc(F)cc(F)c1)C(=O)OC | – | – | concentration not given | – | antitubercular activity | inactive
CCCCCCC1N=C(N)N=C(N)N1c1ccc(Cl)cc1.Cl (racemic) | microplate alamar blue | – | 7H12 medium | – | MIC90 | 5.5 µM

Excerpt of the above:
Compound | test | system | conditions | how to read | quantity | result
CCCCCCCCCCCC1N=C(N)N=C(N)N1c1ccc(Cl)cc1.Cl (racemic) | microplate alamar blue | – | GAST medium, glycerol carbon source | – | MIC90 | 1.3 µM
[2H]c1c(C([2H])([2H])[2H])c([2H])n2c(C(=O)NCc3ccc(C(C)(C)C)cc3)c(C)nc2c1[2H] | MABA | 7H12 medium | – | – | MIC | 0.0027 µM
